Measurements of several laboratories.
Numbers after ± are the reported error. In brackets after ≈: the same amount, converted by molar mass.

SMILES | test | test system | conditions | scale | endpoint | result
NCCCC(=O)OCC(=O)c1ccc(O)c(OC(F)(F)F)c1.O=C(O)C(F)(F)F | photolysis, refers to: GABA appearance | aqueous HEPES buffer with LiClO4 | pH 8.2 |  | quantum yield | 0.02
CN(C)c1ccc(-c2nc3ccc(OCCCCCN4CCN5CCN(CC4)CC(=O)[O][Al]([18F])[O]C(=O)C5)cc3s2)cc1 |  | ICR mouse | intravenous, dose not given, 30 min |  | stomach uptake | 2.81 ± 2.13 % injected dose/organ
CC[C@H](C)[C@H](NC(=O)[C@H](CC(C)C)NC(=O)[C@H](Cc1c[nH]c2ccccc12)NC(=O)[C@H](C)NC(=O)[C@@H](NC(=O)[C@H](Cc1ccccc1)NC(=O)[C@H](CC(=O)O)NC(=O)[C@H](CCCNC(=N)N)NC(=O)[C@H](C)NC(=O)[C@H](C)NC(=O)[C@H](CC(C)C)NC(=O)[C@H](C)NC(=O)[C@H](CC(=O)O)NC(=O)[C@H](CC(C)C)NC(=O)[C@@H](NC(=O)[C@@H](NC(=O)[C@H](C)NC(=O)[C@H](CC(C)C)NC(=O)[C@H](CCC(=O)O)NC(=O)[C@H](CO)NC(=O)[C@H](CO)NC(=O)[C@H](Cc1ccccc1)NC(=O)[C@@H](NC(=O)CNC(=O)[C@H](CCC(=O)O)NC(=O)CNC(=O)[C@@H](N)Cc1c[nH]cn1)[C@@H](C)O)[C@@H](C)O)[C@@H](C)CC)[C@@H](C)CC)C(=O)N[C@@H](C)C(=O)N[C@H](C(=O)N[C@@H](CCCCN)C(=O)N[C@H](C(=O)N[C@H](C(=O)N[C@@H](CC(=O)O)C(=O)N[C@@H](CCCCN)C(=O)O)[C@@H](C)O)[C@@H](C)CC)[C@@H](C)O | immunoaffinity LC-MS/MS | healthy human subjects, plasma | intravenous infusion, 1 mg single dose, infused over 15 min |  | AUClast | 1.58 nM·h
NCCC(=O)N1Cc2ccccc2-c2c(nnn2-c2nc(N)c3ncn(C4OC(CO)C(O)C4O)c3n2)-c2ccccc21 (mixture of isomers) |  | methanol |  |  | brightness | 1.74 M⁻¹ cm⁻¹
CC(C)[C@H](NC(=O)[C@@H]1CCCN1C(=O)[C@H](CCCNC(=N)N)NC(=O)[C@H](CS)NC(=O)[C@H](Cc1c[nH]c2ccccc12)NC(=O)[C@H](CCCNC(=N)N)NC(=O)[C@@H](Cc1ccccc1)NC(=O)[C@H](Cc1c[nH]cn1)NC(=O)[C@H](CCC(=O)O)NC(=O)[C@H](CS)NC(=O)[C@H](CS)NC(=O)CNC(=O)[C@@H]1CC(=O)N[C@@H](CCCNC(=N)N)C(=O)NCC(=O)N[C@@H](CC(=O)O)C(=O)N[C@H](Cc2ccc(O)cc2)C(=O)N1)C(N)=O [technetium-99m labelled] |  | C57 mouse, female, B16/F1 melanoma | intravenous, 0.037 MBq, 4 h | relative to: tumour over muscle | tumour to tissue ratio | 72.6
COC(=O)c1ccc(-c2cn(Cc3cc(Cl)ccc3O[11CH3])nn2)cc1 | PET, Logan plot | rhesus monkey, hypothalamus | dose not given, 40 min |  | volume of distribution | 0.563 mL/cm³
CN[C@@H](CCOc1cccc2ccccc12)c1ccccc1 |  | healthy male humans, plasma | oral, 60 mg of dapoxetine, with: udenafil 200 mg |  | terminal half-life | 15 ± 4.55 h
CCCC(CCC(=O)O)NC(=O)c1ccc2c(c1)OCO2 (centres unmarked) |  | female Sprague-Dawley rats, plasma | oral, 50 mg/kg of parent drug | relative to: 50 over 20 mg/kg dose | Cmax ratio | 1.28
O=c1c(Cc2ccccc2)nc2ccccc2n1-c1ccc([N+](=O)[O-])cc1[N+](=O)[O-] | MTT | rat primary colonocytes, Albino rat, male | 72 h, concentration at 100% viability |  | safe concentration | 0.108 ± 0.013 µM
COCCOCCOCCOCCOCCOCCOCCOCCOCCOCCOCCOCCOCCOCCOCCOCCOCCOCCOCCOCCOCCOCCNC(=O)CCC1(Cc2ccccc2)c2ccccc2-c2ccc(-c3sc(-c4c5c(c(-c6sc(-c7ccc8c(c7)C(CCC(=O)NCCOCCOCCOCCOCCOCCOCCOCCOCCOCCOCCOCCOCCOCCOCCOCCOCCOCCOCCOCCOCCOCCOC)(Cc7ccccc7)c7ccccc7-8)c7c6OCCO7)c6nsnc46)N=S=N5)c4c3OCCO4)cc21 (centres unmarked) | DLS and TEM | aqueous solution |  |  | particle size | 240 ± 30 nm
CC(=O)N[C@H](CC(=O)O)C(=O)N[C@H](Cc1c[nH]c2ccccc12)C(=O)N[C@H](Cc1ccccc1)C(=O)N[C@H](CCCCN)C(=O)N[C@H](C)C(=O)N[C@H](Cc1ccccc1)C(=O)N[C@H](Cc1ccc(O)cc1)C(=O)N[C@H](CC(=O)O)C(=O)N[C@H](CCCCN)C(=O)N[C@@H](C(=O)N[C@H](C)C(=O)N[C@H](CCC(=O)O)C(=O)N[C@H](CCCCN)C(=O)N[C@H](Cc1ccccc1)C(=O)N[C@H](CCCCN)C(=O)N[C@H](CCC(=O)O)C(=O)N[C@H](C)C(=O)N[C@H](Cc1ccccc1)C(N)=O)C(C)C |  | statin-treated high-risk CHD women, plasma | oral, 100 mg daily, day 1, 0 to 2 h, mean, undetectable set to 0 |  | Cmax | 4.03 ng/mL
CC(C)[C@H](NC(=O)CNC(=O)[C@H](CCC(N)=O)NC(=O)[C@H](C)N)C(=O)O |  | human, plasma | intravenous bolus, 3 mg/kg single, 2 min infusion, geometric mean |  | AUC(0-last) | 8 ng·h/mL
COc1ccc2cc(-c3ccc(-c4ccc(C)cn4)nc3)oc2c1 | TCSPC | benzene |  |  | fluorescence lifetime | 1.3 ns
COc1cc(NC(C)=O)c2c(c1O)-c1c(OC)c(OC)cc3c1C(C2)N(C)CC3 (centres unmarked) |  | rat kidney homogenate | 0.5 µg/mL, 40 d, -20 °C, long-term storage |  | remaining compound | 100 ± 1.7%
CC(C)CCN(c1nc(C#N)nc(NC2COC2)n1)C(C)c1ccc(F)cc1 (centres unmarked) |  | female CD-1 mice | intraperitoneal, 10 mg/kg, 4 h |  | plasma concentration | 4.7 ng/mL
Cc1ccc(-c2ccc(-c3cc4sccc4o3)cn2)nc1 |  | acetonitrile | zinc-free ligand |  | emission maximum | 420 nm
CC(C)[C@H](NC(=O)[C@@H]1CCCN1C(=O)[C@H](CCCNC(=N)N)NC(=O)[C@H](CS)NC(=O)[C@H](Cc1c[nH]c2ccccc12)NC(=O)[C@H](CCCNC(=N)N)NC(=O)[C@@H](Cc1ccccc1)NC(=O)[C@H](Cc1c[nH]cn1)NC(=O)[C@H](CCC(=O)O)NC(=O)[C@H](CS)NC(=O)[C@H](CS)NC(=O)COCCOCCNC(=O)[C@@H]1CC(=O)N[C@@H](CCCNC(=N)N)C(=O)NCC(=O)N[C@@H](CC(=O)O)C(=O)N[C@H](Cc2ccc(O)cc2)C(=O)N1)C(N)=O [technetium-99m labelled] |  | nude mice, M21 melanoma xenograft | intravenous, 0.037 MBq, 2 h | relative to: tumour over blood | tissue/plasma ratio | 1.13 ± 0.08
Cn1c(=O)oc2ccc(-c3ccc(CC(C#N)NC(=O)C4CNCCCO4)c(F)c3)cc21 (centres unmarked) | refers to: blood triglycerides increased | human | 80 mg, treatment-related, single dose, fasted |  | subjects with adverse event | 0%
CCCC1OC2CC3C4CCC5=CC(=O)C=CC5(C)C4C(O)CC3(C)C2(C(=O)COC(=O)CN(CC)CC)O1 (centres unmarked) |  |  | concentration not given, pH 7.4, 37 °C |  | time to near-complete hydrolysis | ≤ 24 h
COc1cc(OC)cc(C2=C3C(C)=C(I)C(C)=[N+]3[B-](F)(F)n3c(/C=C/c4c[nH]c5ccc([N+](=O)[O-])cc45)c(I)c(C)c32)c1 |  | dichloromethane |  |  | emission maximum | 630 nm
N=C(N)NCCC[C@@H]1NC(=O)[C@H](Cc2c[nH]c3ccccc23)NC(=O)[C@@H](CC2CCCCC2)NC(=O)[C@@H]2CCCN2C(=O)[C@@H](NC(=O)CCc2ccccc2)CCCNC1=O |  | C57BL/6J mice, plasma | intravenous, 1 mg/kg, two-compartment model |  | distribution rate constant k12 | 13.7 h⁻¹

SMILES | test | test system | conditions | scale | endpoint | result
Nc1ncnc2c1ncn2[C@@H]1O[C@H](COP(=O)(O)O)[C@@H](O)[C@H]1F |  | human liver S9 | 10 µM, 1 h, pH 7.4, 37 °C |  | metabolic loss | ~50%
CCN1/C(=C/C=C2\CCCC(/C=C/C3=[N+](CC)c4ccccc4C3(C)C)=C2NCCCCCCCCN2CCC(Nc3nc4ccccc4n3Cc3ccc(F)cc3)CC2)C(C)(C)c2ccccc21 | dynamic light scattering | saline | 10 µM |  | particle diameter | 367 nm
CCCC[C@H](NC(=O)CNC(=O)CNC(=O)CN1CCN(CC(=O)O)CCN(CC(=O)O)CCN(CC(=O)O)CC1)C(=O)N[C@H]1CC(=O)NCCCC[C@@H](C(N)=O)NC(=O)[C@H](Cc2c[nH]c3ccccc23)NC(=O)[C@H](CCCNC(=N)N)NC(=O)[C@@H](Cc2ccccc2)NC(=O)[C@H](Cc2c[nH]cn2)NC1=O [copper-64 labelled] |  | female C57 mouse, B16/F1 melanoma | intravenous, 0.037 MBq, 4 h | relative to: tumour over muscle | uptake ratio | 262
CCCCn1ccc(=O)c(O)c1C |  | octanol/MOPS buffer | pH 7.4 |  | partition coefficient | 5.02
CN1CCC[C@]1(C)/C=C/S(=O)(=O)NC(=O)Nc1c2c(cc3c1CCC3)CCC2 |  | human, urine | oral, 400 mg single dose |  | percent of dose in urine | 50.3%
CC(=O)Nc1ncc(CN2CC[C@H](Oc3cccc([18F])n3)C[C@@H]2C)s1 | ultrafiltration | rhesus monkey, plasma | pre-blocked condition |  | plasma free fraction | 5.36 ± 0.15%
NC[C@@H](C(=O)Nc1ccc(-c2cn[nH]c2)cc1)c1ccccc1 | OECD 405 eye irritation | New Zealand White rabbit, eye | topical, 0.1%, 73 h (day 4), scale 0 to 3 | direction not given | conjunctival redness score | 1
Oc1ccc2ccccc2c1/N=N/c1ccccc1 |  | rat whole blood QC samples | 5.0 µg/L, 8 h, room temperature, short-term stability |  | measured concentration | 5.01 µg/L
NCC(=O)N1CCC[C@H]1C(=O)N1C[C@H](O)C[C@H]1C(=O)O | potentiometric titration | water | 37 °C, 0.15 mol/dm3 NaCl |  | pKa2 | 3.07
CN1CCC(N[C@@H]2CCc3[nH]c4c(C(N)=O)ccc(-c5ccccc5Cl)c4c3C2)CC1 |  | BALB/c mice, plasma | intravenous, 2 mg/kg |  | clearance | 120 ± 24.2 mL/min/kg
NCCCC(=O)OCC(=O)c1ccc(O)cc1F.O=C(O)C(F)(F)F | photolysis, refers to: disappearance of compound | aqueous HEPES buffer with LiClO4 | pH 7.3 |  | quantum yield | 0.21
CCOc1c(C(C)(C)O)sc2cnc(Nc3ccc(N4CCC(N5CC6(COC6)C5)CC4)cc3OC)nc12 |  | New Zealand rabbit, male, isolated Purkinje fibres | 30 µM, 45 min, pacing 3 Hz |  | APD50 change | -12 ± 5%
O=c1c2ccccc2[se]n1CCCCCCn1[se]c2ccccc2c1=O |  | 20% SOL in water | 24 h, 25 °C |  | solubility | 880 µg/mL (≈ 1840 µM)
Cc1[nH]c(/C=C2\C(=O)Nc3ccc(F)cc32)c(C)c1NC(=O)CCN1CCN(C)CC1 |  | dog plasma | 80 ng/mL, 24 h at room temperature after processing, 25 °C |  | accuracy deviation | -6.52%
Cc1ccccc1/N=N/c1ccc(/N=N/c2c(O)ccc3ccccc23)c(C)c1 |  | extracted rat blood QC samples | 0.2 µg/L, 2 h, room temperature, short-term stability |  | measured concentration | 0.216 µg/L
Oc1cccc(-c2cccc(O)n2)n1.[Cl-].[Cl-].[Ru+2].c1cnc2c(c1)ccc1cccnc12.c1cnc2c(c1)ccc1cccnc12 | shake flask | octanol/phosphate buffer | pH 6.70 |  | logD | 1.4
COc1cc2c(cc1OC)CN(CCCCn1ccc3cc(OCC[18F])ccc31)C2 |  | ICR mice, male, lung | intravenous, 30 min |  | uptake | 7.1 ± 1.12 %ID/g
NCCCC(=O)OCC(=O)c1ccc(O)c(F)c1F.O=C(O)C(F)(F)F | photolysis, refers to: disappearance of compound | aqueous HEPES buffer with LiClO4 | pH 7.3 |  | quantum yield | 0.11
CC[N+]1=C(C=CC=CC=C2N(CCCCCC(=O)O)c3ccc4c(S(=O)(=O)[O-])cc(S(=O)(=O)[O-])cc4c3C2(C)C)C(C)(C)c2c1ccc1c(S(=O)(=O)[O-])cc(S(=O)(=O)[O-])cc21.[K+].[K+].[K+] |  | 100% serum | pH 7.4 |  | quantum yield | 21.3%
CC(C)(O)c1ncc([S@](N)(=O)=NC(=O)Nc2c3c(cc4c2CCC4)CCC3)s1 |  | healthy human, fed | oral, 50 mg twice daily, day 1, tablet formulation, geometric mean |  | AUC(0-tau) | 27000 ng·h/mL

A few entries again:
SMILES | test | test system | conditions | scale | endpoint | result
NCCCC(=O)OCC(=O)c1ccc(O)cc1F.O=C(O)C(F)(F)F | photolysis, refers to: disappearance of compound | aqueous HEPES buffer with LiClO4 | pH 7.3 |  | quantum yield | 0.21
COc1ccc2cc(-c3ccc(-c4ccc(C)cn4)nc3)oc2c1 | TCSPC | benzene |  |  | fluorescence lifetime | 1.3 ns
NCCCC(=O)OCC(=O)c1ccc(O)c(OC(F)(F)F)c1.O=C(O)C(F)(F)F | photolysis, refers to: GABA appearance | aqueous HEPES buffer with LiClO4 | pH 8.2 |  | quantum yield | 0.02
CC(C)[C@H](NC(=O)[C@@H]1CCCN1C(=O)[C@H](CCCNC(=N)N)NC(=O)[C@H](CS)NC(=O)[C@H](Cc1c[nH]c2ccccc12)NC(=O)[C@H](CCCNC(=N)N)NC(=O)[C@@H](Cc1ccccc1)NC(=O)[C@H](Cc1c[nH]cn1)NC(=O)[C@H](CCC(=O)O)NC(=O)[C@H](CS)NC(=O)[C@H](CS)NC(=O)CNC(=O)[C@@H]1CC(=O)N[C@@H](CCCNC(=N)N)C(=O)NCC(=O)N[C@@H](CC(=O)O)C(=O)N[C@H](Cc2ccc(O)cc2)C(=O)N1)C(N)=O [technetium-99m labelled] |  | C57 mouse, female, B16/F1 melanoma | intravenous, 0.037 MBq, 4 h | relative to: tumour over muscle | tumour to tissue ratio | 72.6
COC(=O)c1ccc(-c2cn(Cc3cc(Cl)ccc3O[11CH3])nn2)cc1 | PET, Logan plot | rhesus monkey, hypothalamus | dose not given, 40 min |  | volume of distribution | 0.563 mL/cm³
COc1cc2c(cc1OC)CN(CCCCn1ccc3cc(OCC[18F])ccc31)C2 |  | ICR mice, male, lung | intravenous, 30 min |  | uptake | 7.1 ± 1.12 %ID/g
